Experimental data gathered from unrelated publications.
Protocols differ between the studies behind these lines.
Cell line: DU-145

CN(C)CCN1CCN(c2ccc3nc(-c4ccc5nc(-c6ccc(C(F)(F)F)cc6)[nH]c5c4)[nH]c3c2)CC1
growth percent (SRB; 10 µM, 48 h): 45%

CCCC(CCC)C(=O)OCc1cn(-c2cc3ccccc3oc2=O)nn1
growth percentage (NCI60 single-dose screen; 10 µM): 106%

Cc1ccc([N+](=O)[O-])cc1S(=O)(=O)N(C)/N=C/c1cnc2ccc(Br)cn12
IC50 (cell growth or viability): 1 nM

C1=[N+]2CCCC[N+]3=Cc4ccc5[n]4[Au-]23[n]2c1ccc2-c1nc2ccccc2nc1-5.F[P-](F)(F)(F)(F)F
TGI (NCI60 five-dose screen): 4 -log M

CCN(C(=O)c1cc(F)ccc1Oc1nncnc1N1CCC2(C1)CN([C@H](CCCN(C)CCOC)C(C)C)C2)C(C)C
GI50 (cell growth or viability; 72 h): > 10000 nM

CNS(=O)(=O)Nc1nccc(Cc2c(C)c3ccc(Oc4ncccc4F)cc3oc2=O)c1F
IC50 (cell viability; 7 days): > 1000 nM

COc1ccc(C(O)=CC(=O)c2ccc(C(C)(C)C)cc2)cc1.[Ru+2].c1ccc(-c2cccc(-c3ccccn3)n2)nc1.c1cnccn1
IC50 (cytotoxicity; dark): 180 nM

O=C(Nc1nnc2c1c(-c1ccc(Cl)cc1)nc1sc(=Cc3ccco3)c(=O)n12)c1ccccc1 (mixture of isomers)
cell growth (SRB; 10 µM, NCI60 single-dose screen, prostate cancer; reference: untreated): 57.2%

COc1ccc(C(O)=CC(=O)c2ccc(C(C)(C)C)cc2)cc1.[Ru+2].c1ccc(-c2ccnc3c2ccc2c(-c4ccccc4)ccnc23)cc1.c1ccc(-c2ccnc3c2ccc2c(-c4ccccc4)ccnc23)cc1
IC50 (cytotoxicity; dark): 9900 nM

CC(C)c1ccc(N(C)c2ccc3c(c2)OCC[C@H]3CNc2cnccc2C(=O)O)cc1
IC50 (cell viability, CellTiter-Glo; 7 days): 17.7 nM

For quick reference, copied from above:
CCCC(CCC)C(=O)OCc1cn(-c2cc3ccccc3oc2=O)nn1
growth percentage (NCI60 single-dose screen; 10 µM): 106%
